Assay results from different studies.
Every numbered part comes from another study and shows a few of its results, in no order. Changes are numbered by the printed parent chain.

Sample 1
Target: RING finger protein unkempt homolog, zinc fingers 1-6, GST-SBP tag (UNK, Homo sapiens, UniProt Q9C0B0, residues 30-357)
Sequence of UniProt Q9C0B0 (30-357, looked up): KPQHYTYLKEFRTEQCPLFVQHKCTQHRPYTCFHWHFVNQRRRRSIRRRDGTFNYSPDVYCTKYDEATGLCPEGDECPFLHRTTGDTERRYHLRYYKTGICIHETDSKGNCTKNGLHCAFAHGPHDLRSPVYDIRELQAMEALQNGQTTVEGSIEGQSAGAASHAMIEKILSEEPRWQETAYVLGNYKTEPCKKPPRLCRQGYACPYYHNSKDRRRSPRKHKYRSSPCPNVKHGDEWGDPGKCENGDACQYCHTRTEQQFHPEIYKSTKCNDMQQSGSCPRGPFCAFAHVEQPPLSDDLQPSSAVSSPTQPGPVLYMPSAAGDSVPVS
Technique: RNA Bind-n-Seq
Form: RNA
Medium: in vitro
Tested at: not given
Notes: RNA with constant flanks, human-mouse chimeric sites, ends assumed
Baseline: input RNA pool
Direction: higher = stronger binding
All sequences stand within: GGGAGUUCUACAGUCCGACGAUC … CAACAGAGGAUUGAGCAUCA
For `GUAUACGGUUAUCGAGGAAAGGACUGUAGAGCGAAUGUUUACCUUCUUCCCACAGGGGAGAUAGUUUAUUUUAUCGCCUCAGUGGUAGUCCUGUUUAAUUAUGAGGAGAGAACUCAGCGA`, the bound/input enrichment was 0.252 ratio.
With `GUAGCUGGGACUACAGAAAUGCUGGUAAUUUCAGUCACUUGCUGAUGACUUCUGAUGACCUAGCAAAUGUUGGCAUUGUUGACUGCUGAGAAGAUACUUCUGAGGACCCACGUCUAAGGU` the bound/input enrichment was 0.117 ratio.
For `UUGGAAGGACCAGAGCCCAGUCAGCUCAAACCAUUAGUUAUACAGGCUAUGCCCACCCUAAUAGAACUAAUGAAAGACCCCAGUGUAGUUGUUCGAGACACAACAGCGUGGACUGUGGGC`, the bound/input enrichment was 0.443 ratio.
For `AUCAAAUACUUUGGGGACAUCAUUAGUGUGGGACAGAGAUUGUUGCAAGGAGCUCGGAUCUUAGGGAUUCCAGUUAUCAUAACGGAACAAUACCCCAAAGGUCUUGGCAGCACCGUUCAA`, the bound/input enrichment was 0.143 ratio.
`CUGUUUUGACAGCCACAAAUUCUUGGCAUGUAUUAAGGAAAAAAAAAAUCCCUGUUGAAGUAGUUUUUCCACCUAUCAGCACUGAGUAAAUGCCAUAACUCCGCGGAAAUGGUCUAAAUA` has a bound/input enrichment of 0.235 ratio.
With `GACUUUGGGACUGGUCCUCGCAACGCAGCCUACUAUAGCCCUCAUGGACAUAUAUUAGUGCUGGCUGGAUUUGGAAAUCUUCGAGGACAAAUGGAAGUGUGGGAUGUUAAAAACUACAAG` the bound/input enrichment was 0.336 ratio.
For `AUAUUUCAUAUUGCAAAGAUGUUUACAAGUAUUUUAAUUUAAGUUCAGUGAACUUUUUUGUAGCUGGGUUAAAUCUUUUUAUUUUAGGUAUGGCCUUUGGCAAAGAACACUGUAUUAUUU`, the bound/input enrichment was 1.02 ratio.
For `UCGGAUGCUGUGCUGGGUCACUUUCCGUAUCCAGAUCCUUCACAGUGGACAGAUGAAGAAUUAGGUAUCCCUCCUGAUGACGAGGACUGACACUGUAAACUCUCUGGACGAGUAGGAGCA`, the bound/input enrichment was 0.647 ratio.

Sample 2
Target: CCND1, cyclin fold, Cln2 fusion (human)
Technique: yeast growth competition, sequencing
Medium: yeast
Notes: strong parent motif
Baseline: not given
Direction: higher = stronger binding
Starting sequence: RBL1 docking peptide (human); GSAKRRLFGEDPP; partner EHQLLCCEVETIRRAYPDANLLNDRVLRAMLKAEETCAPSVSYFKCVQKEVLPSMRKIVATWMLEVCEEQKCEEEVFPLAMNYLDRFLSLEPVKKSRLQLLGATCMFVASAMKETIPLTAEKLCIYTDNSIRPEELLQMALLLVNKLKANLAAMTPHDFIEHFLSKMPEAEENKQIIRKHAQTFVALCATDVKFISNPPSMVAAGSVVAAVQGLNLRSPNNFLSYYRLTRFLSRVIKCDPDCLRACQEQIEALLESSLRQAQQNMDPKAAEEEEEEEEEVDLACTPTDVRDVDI
Under “normalised enrichment score”, `GSAKRRLFGEDPR [P13R]` is recorded as 1.57.
`GSAKRRLFGEDPK [P13K]` — result for “normalised enrichment score”: 0.793.
`GSAKRRLFGEIPP [D11I]` — result for “normalised enrichment score”: 0.62.
For `CSAKRRLFGEDPP [G1C]`, “normalised enrichment score” read 1.61.
Under “normalised enrichment score”, `GSAKRRLFGESPP [D11S]` is recorded as 2.48.
Under “normalised enrichment score”, `GSAKRRDFGEDPP [L7D]` is recorded as 0.091.
For `GSAKRRLFGEDCP [P12C]`, “normalised enrichment score” read 1.9.
`GSAKRRLTGEDPP [F8T]`: “normalised enrichment score” 0.645.
`GSAMRRLFGEDPP [K4M]` — result for “normalised enrichment score”: 1.28.
For `GSAKRRLFREDPP [G9R]`, “normalised enrichment score” read 1.37.
For `GSAKRREFGEDPP [L7E]`, “normalised enrichment score” read -0.0575.
`GLAKRRLFGEDPP [S2L]`: “normalised enrichment score” 0.478.
`GSAKRRLFVEDPP [G9V]` — result for “normalised enrichment score”: 3.58.
`GSAKRRLFGEDNP [P12N]`: “normalised enrichment score” 1.85.
`GSAKRRLFYEDPP [G9Y]`: “normalised enrichment score” 2.26.
Under “normalised enrichment score”, `GSAKRRLFGRDPP [E10R]` is recorded as 0.651.
For `GSAKRRLFGEWPP [D11W]`, “normalised enrichment score” read 0.812.
For `GSEKRRLFGEDPP [A3E]`, “normalised enrichment score” read 0.735.
For `GAAKRRLFGEDPP [S2A]`, “normalised enrichment score” read 1.1.

Sample 3
Target: RNA binding protein fox-1 homolog 2, RRM domain, GST-SBP tag (RBFOX2, Homo sapiens, UniProt O43251-10, residues 100-194)
Technique: RNA Bind-n-Seq
Form: RNA
Medium: in vitro
Tested at: 365 nM
Notes: natural RNA segment, single round, ends assumed
Baseline: no-protein control
Direction: higher = stronger binding
All sequences stand within: GGGAGUUCUACAGUCCGACGAUC … UGGAAUUCUCGGGUGCCAA
Residues (chain): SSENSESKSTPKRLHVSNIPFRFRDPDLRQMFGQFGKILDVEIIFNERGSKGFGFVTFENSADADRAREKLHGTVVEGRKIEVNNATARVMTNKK
For `AUAUGUACUUGUUUGCUAUGACUACAUUUUGAGGUUUUGUAAAACUGUUAUUUUUUUUUUUUUCACAAUGUGAAACUGAAGGUCAAUAAAUUAUUAGAGAUUUUCUCUUC`, “RBNS enrichment (R)” read 1.12.
`UCGAACCUGACCAUUGCAGGUGAUCGUGGCCUCGGAGGCCAGCACAGAAUUCUUUCACACUUUUGCAGAAAUGUGUAUAUUUAAUGCUGUGCGACUGCUAAACUGCAGGU`: “RBNS enrichment (R)” 0.28.
For `CCAGAUUUAAAUCCAGCUGAGGCUCCCUUUGUUUUCAGUUCCAUGUAACAAUCUGGAAGGAAACUUCACGGACAGGAAGACUGCUGGAGAAGAGAAGCGUGUUAGCCCAU`, “RBNS enrichment (R)” read 0.379.
For `CAUGCUUAAAGAAGUAAGAAAUCUUUUGUGGAUAUGUAAUUAUACAUAUAAAGUAUAUAUAUAUGUAUGAUACAUGAAAUAUAUUUAGAAAUGUUCAUAAUUUUAAUGGA`, “RBNS enrichment (R)” read 0.672.
`CAGGGGCCCCGACUCUUAAGGGGGAGGGUGUGGCUUAACUGCAGCGUUGGAACCUUAAAGUGGGAAAGAUAGGGUCAAGUUAAAGUAAUAAAAUGAGUCAUGUCUCCCGA`: “RBNS enrichment (R)” 0.499.
For `ACAGUGGUAAAAACCAAACUACCUUGAAUUUUUUUAAGGCAACUUAUGAAUAAUGCUCAUUUUCACAGUCAGAAUAGCUUUAAAAUAUGGUUGAAUUUGAUACACACAGG`, “RBNS enrichment (R)” read 0.42.
Under “RBNS enrichment (R)”, `AGAGGACAGUAGGGAAUCUGCCGAGGUGCCCGCACGUACUUUAGUGAGUUUAGCCAAACUAACAGCAGAAAUAAUACUGGAUUUUGAGUAAGCAGACUUAGGAGAAUAUU` is recorded as 0.393.
`CUCCUGGCCAAGUGUUCUCUGUUUUCCUCGCACCUCCUUACACUGUGUGACCUGCAGGGCAUGAGGUAUUGAUGUGUUCGGGUUUCCUUUCCCAAGCCAGCAGAUGCAGG`: “RBNS enrichment (R)” 0.798.

Sample 4
Target: UBE2R2 UBC core domain (UniProt Q712K3)
Technique: yeast two-hybrid
Medium: yeast
Notes: mostly zero background
Baseline: not given
Direction: higher = stronger interaction
B1: RNF115 RING domain (UniProt Q9Y4L5); chain TQEQVDMGLECPVCKEDYTVEEEVRQLPCNHFFHSSCIVPWLELHDTCPVCRKSLNGEDSTR
B2: TRIM74 RING domain (UniProt Q86UV6); chain SLLELEDWLQCPICLEVFKESLMLQCGHSYCKGCLVSLSYHLDTKVRCPMCWQVVDGSSSLP
B3: MARCHF2 RING domain (UniProt Q9P0N8); chain RLLSTVIRALDTPSDGPFCRICHEGANGECLLSPCGCTGTLGAVHKSCLEKWLSSSNTSYCELCHTEFAVEKRPRPLTEWL
B4: TRIM28 RING domain (UniProt Q13263); chain GAEALELLEHCGVCRERLRPEREPRLLPCLHSACSACLGPAAPAAANSSGDGGAAGDGTVVDCPVCKQQCFSKDIVE
B5: TRIM68 RING domain (UniProt Q6AZZ1); chain LVEAIVEEVACPICMTFLREPMSIDCGHSFCHSCLSGLWEIPGESQNWGYTCPLCRAPVQPRNLRP
B6: TRIM32 RING domain (UniProt Q13049); chain NLDALREVLECPICMESFTEEQLRPKLLHCGHTICRQCLEKLLASSINGVRCPFCSKITRITSLTQ
B7: RFPL3 RING domain (UniProt O75679); chain MAALFQEASSCPVCSDYLEKPMSLECGCTVCLKCINSLQKEPHGEDLLCCCCSMVSQRNKIRP
B8: PJA2 RING domain (UniProt O43164); chain DHTAIGQEQCCPICCSEYIKDDIATELPCHHFFHKPCVSIWLQKSGTCPVCRRHFPPAVIEA
Residues (chain): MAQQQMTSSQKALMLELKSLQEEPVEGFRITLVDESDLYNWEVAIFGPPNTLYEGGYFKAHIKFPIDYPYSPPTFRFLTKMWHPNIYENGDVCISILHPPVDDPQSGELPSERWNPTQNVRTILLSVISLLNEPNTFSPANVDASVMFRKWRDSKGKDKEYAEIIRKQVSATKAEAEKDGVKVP
`B1 (RNF115 RING domain)` — result for “lacZ reporter activity”: 0.
`B2 (TRIM74 RING domain)`: “lacZ reporter activity” 0.
For `B3 (MARCHF2 RING domain)`, “lacZ reporter activity” read 0.
Under “lacZ reporter activity”, `B4 (TRIM28 RING domain)` is recorded as 0.
For `FLSKVEETFQCICCQELVFRPITTVCQHNVCKDCLDRSFRAQVFSCPACRYDLGRSYAMQ (UHRF1 RING domain (UniProt Q96T88))`, “lacZ reporter activity” read 0.
Under “lacZ reporter activity”, `B5 (TRIM68 RING domain)` is recorded as 0.
Under “lacZ reporter activity”, `B6 (TRIM32 RING domain)` is recorded as 0.
Under “lacZ reporter activity”, `B7 (RFPL3 RING domain)` is recorded as 0.
Under “lacZ reporter activity”, `B8 (PJA2 RING domain)` is recorded as 0.
